Results pooled from the literature.
Protocols differ between the studies behind these lines. Values joined by “and” are separate records of one study, mostly repeats; a detail may differ. ± gives the spread as reported. Where no end group is shown, it is not given here. [ ]: non-standard residue; d: D form.
HLA class I histocompatibility antigen, A alpha chain allele A*02:01: HLA class I histocompatibility antigen, A alpha chain, allele A*02:01 (Homo sapiens, UniProt P04439)
SCRIB PDZ3 domain: Protein scribble homolog, PDZ3 domain (SCRIB, Homo sapiens, UniProt Q14160)
HLA class I histocompatibility antigen, A alpha chain allele A*01:01: HLA class I histocompatibility antigen, A alpha chain, allele A*01:01 (Homo sapiens, UniProt P04439)
HLA class I histocompatibility antigen, A alpha chain allele A*24:02: HLA class I histocompatibility antigen, A alpha chain, allele A*24:02 (Homo sapiens, UniProt P04439)

Substance | target | test | system | conditions | how to read | endpoint | value
LMDLSTTPL | HLA class I histocompatibility antigen, A alpha chain allele A*02:01 | HLA-A2 stabilization, peptide titration | peptide, T2 | 20 h, 37 °C, with: human β2-microglobulin 100 ng/mL | baseline: HIVpol reference peptide, lower is stronger | relative affinity | 0.947
LHLHGTGIQV | SCRIB PDZ3 domain | binding, fluorescence polarization | peptide, solution | Scribble PDZ3 domain | – | Kd | 100 µM
BzATP | P2X purinoceptor 7 (P2rx7, Rattus norvegicus, UniProt Q64663) | ion current, agonist, two-electrode voltage clamp | Xenopus laevis oocytes | 30 µM | baseline: 100 µM ATP current | normalized current | 1.45 and 1.73 and 1.28
TQLMPFGSL | HLA class I histocompatibility antigen, A alpha chain allele A*02:01 | conformational ELISA | peptide | concentration not given | baseline: positive control peptide, direction not given | binding score | 2.3%
VKPQVSESKL | SCRIB PDZ3 domain | binding, fluorescence polarization | peptide, solution | Scribble PDZ3 domain | – | Kd | 100 µM
QLMPFGSLLDY | HLA class I histocompatibility antigen, A alpha chain allele A*01:01 | conformational ELISA | peptide | concentration not given | baseline: positive control peptide, direction not given | binding score | 89.2%
CTIL | Candida albicans protein farnesyltransferase | peptide farnesylation, substrate | peptide | with: C15-Alk 4 µM | – | kcat/KM | 210000 M⁻¹ s⁻¹
VQLIMQLMPF | HLA class I histocompatibility antigen, A alpha chain allele A*02:01 | conformational ELISA | peptide | concentration not given | baseline: positive control peptide, direction not given | binding score | 1.1%
alkynyl-farnesyl pyrophosphate | Protein farnesyltransferase (Rattus norvegicus, UniProt Q02293+Q04631) | peptide prenylation, substrate, fluorescence anisotropy | – | with: FAM-RHEB peptide | – | Vmax | 3.1 fmol/min
TILWKDIFHK | HLA class I histocompatibility antigen, A alpha chain (Homo sapiens, UniProt P04439) | iTopia initial binding | peptide | 11 µM, 18 h, 21 °C, HLA-A3 allele | baseline: allele positive control peptide | binding | 96%
MANT-ADP | Mitochondrial dynamics protein MID49 (Mief2, Mus musculus, UniProt Q5NCS9) | ligand | – | 300 nM, mouse protein, varied concentration | – | binding | no binding
STVQLIMQLM | HLA class I histocompatibility antigen, A alpha chain allele A*02:01 | conformational ELISA | peptide | concentration not given | baseline: positive control peptide, direction not given | binding score | 3.6%
methyl-β-cyclodextrin | SLC6A9 (Homo sapiens, UniProt P48067) | transport activity, [3H]glycine uptake | – | 3.5 mg/mL, 1 min, with: glycine 37.5 µM | higher = more transport | glycine uptake rate | 12.2 a.u. and 17.5 a.u. and 16.8 a.u. and 15.3 a.u. and 11.7 a.u.
SYLSGANLNL | human HLA-A24 (A*2401) | peptide-MHC binding, iTopia initial binding | peptide, plate-bound HLA heavy chain | 11 µM, 18 h, 21 °C | baseline: allele-matched positive control peptide | binding | 95 ,2
IMNSLSLFA | HLA class I histocompatibility antigen, A alpha chain allele A*02:01 | HLA-A2 stabilization, peptide titration | peptide, T2 | 20 h, 37 °C, with: human β2-microglobulin 100 ng/mL | baseline: HIVpol reference peptide, lower is stronger | relative affinity | 37.7
Tannic acid | PDIA6 (Homo sapiens, UniProt Q15084) | disulfide reductase activity | – | 20 µM, 15 min, with: di-eosin-GSSG | – | inhibition | inhibited
IMQLMPFGCLL | HLA class I histocompatibility antigen, A alpha chain allele A*24:02 | conformational ELISA | peptide | concentration not given | baseline: positive control peptide, direction not given | binding score | 27.1%

Substance | target | test | system | conditions | how to read | endpoint | value
PRAEAEDSFL | SCRIB PDZ3 domain | binding, fluorescence polarization | peptide, solution | Scribble PDZ3 domain | – | Kd | 100 µM
Asiaticoside | CDK7 (Homo sapiens, UniProt P50613) | enzyme activity, inhibitor, ADP-Glo kinase | – | 10 µM | – | inhibition | 34.8 ± 7.5%
MQLMPFGCL | HLA class I histocompatibility antigen, A alpha chain allele A*02:01 | conformational ELISA | peptide | concentration not given | baseline: positive control peptide, direction not given | binding score | 33.2%
6-carboxyfluorescein | SLCO2A1 (Homo sapiens, UniProt Q92959, C448A) | compound uptake, substrate | HEK293F expressing SLCO2A1 C448A | 50 µM | baseline: wild type | uptake | 48.8% and 40.1% and 51.8%
GSGAGICTIV | human MAGI1-3/6 PDZ construct (MBP fusion) | automated holdup | peptide, purified PDZ protein | concentration not given, unit not given | baseline: biotin control resin, higher = stronger binding | binding intensity | 0.0758
milbemycin oxime | CDR1 (Candida albicans, UniProt Q5ANA3) | binding, microscale thermophoresis | – | 4.89 nM | – | fraction bound | -5.02%
ITDFGRAKLL | HLA class I histocompatibility antigen, A alpha chain allele A*24:02 | conformational ELISA | peptide | concentration not given | baseline: positive control peptide, direction not given | binding score | 6.4%
11-deoxycorticosterone | CYP11B2 (human) | substrate binding, stopped-flow kinetic modelling | – | 4-state branched induced-fit model, with: no adrenodoxin | – | rate constant k3 | 0.378 min⁻¹
V[Aib]IA (Aib2; Aib = CC(C)(N)C(=O)O) | APP (Homo sapiens, UniProt P05067) | aggregation, ThT fluorescence | – | 24 h, 37 °C, Aβ to peptide ratio 1:1, with: Aβ1–42 2 µM | baseline: Aβ1–42 alone, lower is stronger inhibition | ThT fluorescence | 88.1%
KRIAYLRKKIAALKKDNANLEKDIANLENEIERLIKEIKTLENEVASHEQ | Cyclic AMP-dependent transcription factor ATF-4 (Homo sapiens, UniProt P18848) | heterodimer thermal denaturation, CD | peptide, 1 M GuHCl | 4 µM total peptide, pH 7.4 | – | Tm | 52.1 °C
tannic acid | hyaluronidase (bovine testes) | enzyme activity | – | 200 µg/mL | – | inhibition | > 90%
ELPHSVNSKL | SCRIB PDZ3 domain | binding, fluorescence polarization | peptide, solution | Scribble PDZ3 domain | – | Kd | 100 µM
D-AP5 | Glutamate NMDA receptor; GRIN1/GRIN2B (GRIN1/GRIN2B, Homo sapiens, UniProt Q05586+Q13224) | ion current, antagonist, whole-cell patch clamp | HEK293T cells | concentration not given | – | inhibition | 86.59 ± 0.01%
NIGSQGSTDY | SCRIB PDZ3 domain | binding, fluorescence polarization | peptide, solution | Scribble PDZ3 domain | – | Kd | 100 µM
GGWVEKETYY | human MAGI1-3/6 PDZ construct (MBP fusion) | automated holdup | peptide, crude extract | concentration not given, uncorrected, unit not given | baseline: biotin control resin, higher = stronger binding | binding intensity | -0.0375
LMPFGSLLDYV | HLA class I histocompatibility antigen, A alpha chain allele A*01:01 | conformational ELISA | peptide | concentration not given | baseline: positive control peptide, direction not given | binding score | 0.7%
